# Measured values gathered from unrelated publications.
# Protocols differ between the studies behind these lines. “And” joins repeats or separate records; there may be more than shown.
# Organism: Plasmodium falciparum
SMILES,assay,test system,conditions,how to read,measurement,result
O=C(/C=C/c1ccc(O)c(CN2CCCCC2)c1)c1ccc(F)cc1,parasite growth,3D7,"72 h, blood stage",,EC50,> 29500 nM
Clc1ccc2c(Nc3ccc(N4CCNCC4)cc3)ccnc2c1,"parasite growth, SYBR Green",DD2,"72 h, drug-resistant strain, blood stage",,IC50,30 nM
C/C=C1\NC(=O)[C@H]2CSSCC/C=C/[C@H](CC(=O)N[C@H](C(C)C)C(=O)N2)OC(=O)[C@H](C(C)C)NC1=O,"Western blot, item: tetra-acetylated histone H4",3D7 trophozoites,"3 × IC50, 3 h",relative to: DMSO,histone H4 acetylation,2.4 fold and > 1.3 fold
O=C(NN=Cc1c(O)ccc2ccccc12)c1ccncc1,"parasite growth, [3H]hypoxanthine incorporation",3D7,48 h,relative to: Fe(III) complex over free ligand,IC50 increase,102%
CCN1CCC(c2ccc(Nc3ccnc4cc(Cl)ccc34)cc2)CC1,"parasite growth, SYBR Green",DD2,"72 h, drug-resistant strain, blood stage",,IC50,11 nM
"COc1ccc(C(F)(F)F)cc1CN(C)C(c1cccnc1)c1nnnn1-c1ccccc1C (single isomer, unassigned; (+))","parasite growth, SYBR Green",3D7,72 h,,EC50,1600 nM
Clc1ccc2c(Nc3ccc(C4COCCN4Cc4ccccc4)cc3)ccnc2c1 (stereo not drawn),"parasite growth, SYBR Green",DD2,"72 h, drug-resistant strain, blood stage",,IC50,≥ 250 nM
CC(C)(C)c1ccc(O)c(CNC2CCCCC2)c1,exflagellation,stage V gametocytes,"24 h, compound washed out",,IC50,> 20000 nM
FC(F)(F)c1ccc(N2CCN(c3ccc(Nc4ccnc5cc(Cl)ccc45)cc3)CC2)cc1,"parasite growth, SYBR Green",DD2,"72 h, drug-resistant strain, blood stage",,IC50,95 nM
CC(=O)OCc1cn(-c2n[nH]c(C(F)(F)F)n2)nn1,parasite growth,NF54,"1 µM, gametocyte",,inhibition,> 75%
CN1CCC(c2cc(-c3ccncc3)c(-c3ccc(F)cc3)[nH]2)CC1,Nluc release,Hyp1-Nluc schizonts,"concentration not given, 30 min",relative to: DMSO control,egress,24%
CCN(CC)CCCC(C)Nc1ccnc2cc(Cl)ccc12 (stereo not drawn),[3H]hypoxanthine incorporation,3D7,"10 µM, 48 h",,growth inhibition,~100%
CCN(CC)CCCC(C)Nc1ccnc2cc(Cl)ccc12 (stereo not drawn),,"stage II gametocytes, NF54","IC90, 2 d, counted at day 7",relative to: DMSO,mature gametocyte reduction,≤ 20%
COc1ccc(C2CC(=O)C3=C(C2)NC(C)=C(C(=O)OC(C)C)C3c2ccccc2C)cc1OC (stereo not drawn),male gamete formation,stage V gametocytes,"24 h, compound washed out",,IC50,521 nM
CS(=O)(=O)c1ccc(-c2cnc(N)c(-c3ccc(C(F)(F)F)nc3)c2)cc1,,SCID mice,blood stage PKPD model,,MIC free,11.5 ng/mL

# A few entries again:
SMILES,assay,test system,conditions,how to read,measurement,result
CN1CCC(c2cc(-c3ccncc3)c(-c3ccc(F)cc3)[nH]2)CC1,Nluc release,Hyp1-Nluc schizonts,"concentration not given, 30 min",relative to: DMSO control,egress,24%
CC(=O)OCc1cn(-c2n[nH]c(C(F)(F)F)n2)nn1,parasite growth,NF54,"1 µM, gametocyte",,inhibition,> 75%
